Earlier results as cited in several papers.
Compare with care: the assays were run in different laboratories. Numbers after ± are the reported error.
BDKRB2: B2 bradykinin receptor (BDKRB2, Homo sapiens, UniProt P30411)
Chain of UniProt P30411 (whole entry, looked up): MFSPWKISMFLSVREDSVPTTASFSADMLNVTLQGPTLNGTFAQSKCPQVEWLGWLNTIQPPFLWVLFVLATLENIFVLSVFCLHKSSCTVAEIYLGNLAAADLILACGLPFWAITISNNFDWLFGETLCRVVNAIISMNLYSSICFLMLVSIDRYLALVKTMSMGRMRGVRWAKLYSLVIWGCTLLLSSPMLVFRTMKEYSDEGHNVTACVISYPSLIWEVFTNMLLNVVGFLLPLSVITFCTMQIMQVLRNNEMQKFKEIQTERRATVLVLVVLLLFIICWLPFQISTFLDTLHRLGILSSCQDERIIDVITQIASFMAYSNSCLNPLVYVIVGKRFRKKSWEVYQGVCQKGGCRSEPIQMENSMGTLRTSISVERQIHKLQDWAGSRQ
pufM QA site: Reaction center protein M chain, QA site (pufM, Cereibacter sphaeroides, UniProt P0C0Y9)
Chain of UniProt Q91XE4 (whole entry, looked up): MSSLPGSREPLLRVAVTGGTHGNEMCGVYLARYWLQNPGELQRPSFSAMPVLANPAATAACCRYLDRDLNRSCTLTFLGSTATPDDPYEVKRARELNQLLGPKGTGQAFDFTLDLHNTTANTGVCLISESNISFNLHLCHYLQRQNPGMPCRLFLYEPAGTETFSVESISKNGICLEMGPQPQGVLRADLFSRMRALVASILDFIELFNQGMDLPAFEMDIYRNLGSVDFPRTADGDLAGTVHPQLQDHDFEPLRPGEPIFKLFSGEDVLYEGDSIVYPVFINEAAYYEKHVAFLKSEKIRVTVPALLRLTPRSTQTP
Chain of UniProt P36544 (whole entry, looked up): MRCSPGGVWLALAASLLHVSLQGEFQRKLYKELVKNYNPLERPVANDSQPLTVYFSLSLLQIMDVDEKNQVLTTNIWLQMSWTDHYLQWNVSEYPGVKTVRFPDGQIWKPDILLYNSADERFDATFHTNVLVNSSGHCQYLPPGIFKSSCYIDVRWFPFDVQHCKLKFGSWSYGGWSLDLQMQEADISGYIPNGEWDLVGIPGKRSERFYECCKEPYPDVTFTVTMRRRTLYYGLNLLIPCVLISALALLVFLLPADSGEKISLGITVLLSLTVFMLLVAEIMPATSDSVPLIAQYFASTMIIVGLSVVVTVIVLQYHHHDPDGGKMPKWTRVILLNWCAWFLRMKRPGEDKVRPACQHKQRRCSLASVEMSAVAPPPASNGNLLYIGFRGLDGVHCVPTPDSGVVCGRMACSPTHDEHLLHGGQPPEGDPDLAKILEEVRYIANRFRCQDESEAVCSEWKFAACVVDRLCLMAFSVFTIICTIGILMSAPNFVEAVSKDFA
Chain of UniProt P42338 (whole entry, looked up): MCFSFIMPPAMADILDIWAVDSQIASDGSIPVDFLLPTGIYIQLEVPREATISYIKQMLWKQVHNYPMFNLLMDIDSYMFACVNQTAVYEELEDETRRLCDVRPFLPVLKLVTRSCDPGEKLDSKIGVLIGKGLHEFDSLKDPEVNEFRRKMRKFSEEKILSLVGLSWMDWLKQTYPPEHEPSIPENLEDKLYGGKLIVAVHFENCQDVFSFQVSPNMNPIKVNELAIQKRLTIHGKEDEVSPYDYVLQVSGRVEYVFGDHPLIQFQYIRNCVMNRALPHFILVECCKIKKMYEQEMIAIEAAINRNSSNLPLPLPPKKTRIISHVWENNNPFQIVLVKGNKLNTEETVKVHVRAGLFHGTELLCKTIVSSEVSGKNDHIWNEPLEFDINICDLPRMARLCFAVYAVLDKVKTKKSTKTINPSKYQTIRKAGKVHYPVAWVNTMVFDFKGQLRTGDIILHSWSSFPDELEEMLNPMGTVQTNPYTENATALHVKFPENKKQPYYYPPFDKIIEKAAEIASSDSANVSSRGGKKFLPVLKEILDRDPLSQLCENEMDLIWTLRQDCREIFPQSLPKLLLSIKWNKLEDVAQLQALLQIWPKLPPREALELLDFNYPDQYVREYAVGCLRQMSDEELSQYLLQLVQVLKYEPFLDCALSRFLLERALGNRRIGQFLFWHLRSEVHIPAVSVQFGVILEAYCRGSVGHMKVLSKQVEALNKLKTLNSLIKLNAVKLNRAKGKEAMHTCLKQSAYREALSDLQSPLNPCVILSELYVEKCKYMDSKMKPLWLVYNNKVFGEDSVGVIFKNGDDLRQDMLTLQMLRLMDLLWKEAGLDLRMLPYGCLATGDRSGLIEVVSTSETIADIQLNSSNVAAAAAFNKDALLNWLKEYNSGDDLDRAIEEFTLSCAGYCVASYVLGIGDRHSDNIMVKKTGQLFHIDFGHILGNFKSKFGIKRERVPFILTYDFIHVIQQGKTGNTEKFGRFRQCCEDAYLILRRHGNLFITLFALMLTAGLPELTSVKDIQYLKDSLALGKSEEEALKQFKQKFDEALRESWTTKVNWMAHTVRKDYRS
Chain of UniProt P25021 (whole entry, looked up): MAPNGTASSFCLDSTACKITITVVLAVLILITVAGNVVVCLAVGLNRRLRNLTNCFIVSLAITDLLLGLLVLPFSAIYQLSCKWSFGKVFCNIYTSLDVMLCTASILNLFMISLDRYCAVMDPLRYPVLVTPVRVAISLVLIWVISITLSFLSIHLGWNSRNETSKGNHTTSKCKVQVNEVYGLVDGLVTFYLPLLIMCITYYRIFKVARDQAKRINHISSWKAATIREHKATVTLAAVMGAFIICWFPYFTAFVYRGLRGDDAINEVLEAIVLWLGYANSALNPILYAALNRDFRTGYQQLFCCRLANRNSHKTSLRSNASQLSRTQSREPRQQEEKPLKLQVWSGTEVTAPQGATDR
Chain of UniProt P35408 (whole entry, looked up): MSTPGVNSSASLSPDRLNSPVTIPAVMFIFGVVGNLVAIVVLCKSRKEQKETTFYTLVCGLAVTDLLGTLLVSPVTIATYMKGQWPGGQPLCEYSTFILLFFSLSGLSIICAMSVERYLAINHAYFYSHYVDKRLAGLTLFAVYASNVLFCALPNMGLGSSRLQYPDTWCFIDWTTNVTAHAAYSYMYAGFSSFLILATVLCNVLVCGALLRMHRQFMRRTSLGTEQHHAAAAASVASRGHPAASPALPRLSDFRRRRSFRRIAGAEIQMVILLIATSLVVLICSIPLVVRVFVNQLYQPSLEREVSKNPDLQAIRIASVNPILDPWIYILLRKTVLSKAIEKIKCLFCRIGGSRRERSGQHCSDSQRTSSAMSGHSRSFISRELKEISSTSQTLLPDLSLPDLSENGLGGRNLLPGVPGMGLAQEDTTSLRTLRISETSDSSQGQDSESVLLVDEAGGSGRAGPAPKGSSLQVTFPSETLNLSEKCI
Chain of UniProt Q08638 (whole entry, looked up): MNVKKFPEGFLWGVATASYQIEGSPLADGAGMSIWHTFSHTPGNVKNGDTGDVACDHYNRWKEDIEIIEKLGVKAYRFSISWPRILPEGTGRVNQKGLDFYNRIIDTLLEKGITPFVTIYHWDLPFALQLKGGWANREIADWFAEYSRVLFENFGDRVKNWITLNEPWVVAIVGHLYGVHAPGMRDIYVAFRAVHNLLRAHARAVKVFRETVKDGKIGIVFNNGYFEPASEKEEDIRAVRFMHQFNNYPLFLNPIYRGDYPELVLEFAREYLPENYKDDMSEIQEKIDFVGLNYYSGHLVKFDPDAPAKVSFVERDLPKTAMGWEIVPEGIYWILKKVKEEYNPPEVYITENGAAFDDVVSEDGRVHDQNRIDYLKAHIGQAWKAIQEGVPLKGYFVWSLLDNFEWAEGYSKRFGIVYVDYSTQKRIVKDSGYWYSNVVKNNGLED
Chain of UniProt P33533 (whole entry, looked up): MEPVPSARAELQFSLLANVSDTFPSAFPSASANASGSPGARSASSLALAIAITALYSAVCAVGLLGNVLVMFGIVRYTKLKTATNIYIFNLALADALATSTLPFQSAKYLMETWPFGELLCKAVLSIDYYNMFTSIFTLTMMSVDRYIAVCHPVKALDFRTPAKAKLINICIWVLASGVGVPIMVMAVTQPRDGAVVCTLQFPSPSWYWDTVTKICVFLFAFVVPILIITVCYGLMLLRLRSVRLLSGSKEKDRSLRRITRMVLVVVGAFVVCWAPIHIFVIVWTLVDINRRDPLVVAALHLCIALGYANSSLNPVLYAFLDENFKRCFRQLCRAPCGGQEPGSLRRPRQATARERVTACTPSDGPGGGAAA
Chain of UniProt P15823 (whole entry, looked up): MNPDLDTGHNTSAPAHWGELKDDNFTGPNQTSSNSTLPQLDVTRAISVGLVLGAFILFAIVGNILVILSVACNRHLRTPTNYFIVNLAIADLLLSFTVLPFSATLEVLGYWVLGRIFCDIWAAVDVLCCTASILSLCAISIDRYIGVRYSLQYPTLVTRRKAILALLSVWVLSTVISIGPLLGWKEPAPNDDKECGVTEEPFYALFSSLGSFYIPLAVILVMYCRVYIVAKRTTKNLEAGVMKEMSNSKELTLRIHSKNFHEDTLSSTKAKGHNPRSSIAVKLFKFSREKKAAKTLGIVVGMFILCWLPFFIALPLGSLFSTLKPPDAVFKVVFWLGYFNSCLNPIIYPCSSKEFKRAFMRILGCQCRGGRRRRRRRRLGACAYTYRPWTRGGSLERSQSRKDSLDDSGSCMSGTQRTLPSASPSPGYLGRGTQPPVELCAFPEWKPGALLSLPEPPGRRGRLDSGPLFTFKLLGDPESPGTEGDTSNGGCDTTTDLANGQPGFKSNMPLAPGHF
Chain of UniProt P14416 (whole entry, looked up): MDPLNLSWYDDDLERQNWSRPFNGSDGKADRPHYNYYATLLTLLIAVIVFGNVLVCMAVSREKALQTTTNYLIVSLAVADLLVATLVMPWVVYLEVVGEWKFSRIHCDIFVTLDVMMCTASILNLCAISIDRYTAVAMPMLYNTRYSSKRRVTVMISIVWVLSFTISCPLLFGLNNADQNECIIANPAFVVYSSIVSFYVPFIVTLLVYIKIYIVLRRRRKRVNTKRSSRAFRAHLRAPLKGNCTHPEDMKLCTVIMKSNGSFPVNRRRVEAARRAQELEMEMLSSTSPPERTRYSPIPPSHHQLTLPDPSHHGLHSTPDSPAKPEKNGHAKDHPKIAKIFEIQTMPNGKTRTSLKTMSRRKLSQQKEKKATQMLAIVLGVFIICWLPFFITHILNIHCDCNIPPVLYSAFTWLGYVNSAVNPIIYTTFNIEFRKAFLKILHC

COc1cc2nc(N3CCN(C(=O)c4ccco4)CC3)nc(N)c2cc1OC
Hill coefficient (Adra1b (Rattus norvegicus, UniProt P15823)): 1

O=C(O)C(F)(F)C(F)(F)C(F)(F)C(F)(F)C(F)(F)F
IC50 (CYP3A4; inhibitor; Tox21 screening): inactive

NC(N)=NCCC[C@H](NC(=O)[C@H](Cc1ccccc1)NC(=O)[C@@H]1CCCN1C(=O)[C@H](CO)NC(=O)[C@H](Cc1ccccc1)NC(=O)CNC(=O)[C@@H]1CCCN1C(=O)[C@@H]1CCCN1C(=O)[C@@H](N)CCCN=C(N)N)C(=O)O
Hill coefficient (BDKRB2): 1

Nc1ccccc1C(=O)C[C@H](N)C(=O)O
kcat (kynureninase (Pseudomonas fluorescens); substrate): 6.9 s⁻¹

N[C@@H](CCC[C@H](NC(=O)CCC(=O)O)C(=O)O)C(=O)O (mixture of isomers)
Km (dapE (Haemophilus influenzae, UniProt P44514); substrate): 730 ± 15 µM

FC(F)(F)C(F)(F)C(F)(F)C(F)(F)CCI
IC50 (CYP3A4; inhibitor; Tox21 screening): inactive

CN1C[C@H](CNC(=O)OCc2ccccc2)C[C@@H]2c3cccc4c3c(cn4C)C[C@H]21
Hill coefficient (HTR1A (Homo sapiens, UniProt P08908); historical reference value): 0.9

CC(=O)N1CC[C@@H](NC(=O)[C@@H](N)Cc2c(C)cc(O)cc2C)c2cc(Cc3ccccc3)ccc21
DOR stimulation (Oprd1 (Rattus norvegicus, UniProt P33533); agonist; concentration not given): 26 ± 3%

COc1cccc2c3c(=O)n(C4C5(C)CCC(C5)C4(C)C)ccc3n(CCN3CCOCC3)c12 (centres unmarked)
Ki (CB1 receptor; binding): 16 nM

Nc1ncnc2c1ncn2[C@@H]1O[C@H](COP(=O)(O)OP(=O)(O)OP(=O)(O)O)[C@@H](O)[C@H]1O
maximum rate (dnaK (Escherichia coli, UniProt P0A6Y8, E213C/T22C); concentration not given): ~60 s⁻¹

O=C(CCCN1CCC2(CC1)C(=O)NCN2c1ccccc1)c1ccc(F)cc1
Hill coefficient (DRD2 (Homo sapiens, UniProt P14416); historical reference value): 1

Nc1ccccc1[C@H](O)C[C@H](N)C(=O)O
Km (kynureninase (Pseudomonas fluorescens); substrate): 1.5 µM

O=C1Nc2ccc(Cl)cc2[C@@](C#CC2CC2)(C(F)(F)F)O1
binding (pol, reverse transcriptase (Feline immunodeficiency virus, UniProt P16088); microscale thermophoresis; concentration not given): no binding

CCCCCCCCCCCC(=O)O
binding (mouse PPARalpha; concentration not given): no binding

CN1CCc2[nH]c3ccccc3c2CC1.O=C(O)/C=C/C(=O)O
Hill coefficient (CHRNA7 (Homo sapiens, UniProt P36544); inhibitor; together with: 100 µM acetylcholine): 1.5 ± 0.1

COC(=O)[C@@H]1C[C@H](OC(C)=O)C(=O)[C@H]2[C@@]1(C)CC[C@H]1C(=O)O[C@H](c3ccoc3)C[C@]21C
Ki (kappa opioid receptor I294A): 12 ± 6 nM

Nc1ncc(-c2nc(N3CCOCC3)nc(N3CCOCC3)n2)c(C(F)F)n1
remaining binding (PIK3CB (Homo sapiens, UniProt P42338); KinomeScan competition binding; 10 µM): 0%

CNC(=NCCSCc1csc(N=C(N)N)n1)NC#N
Hill coefficient (HRH2 (Homo sapiens, UniProt P25021)): 1.1

Nc1ccc(Br)cc1C(=O)C[C@H](N)C(=O)O
kcat (kynureninase (Pseudomonas fluorescens); substrate): 2.1 s⁻¹

O=[N+]([O-])c1ccc(O[C@@H]2O[C@H](CO)[C@@H](O)[C@H](O)[C@H]2O)c([N+](=O)[O-])c1
kcat (bglA (Thermotoga maritima, UniProt Q08638); substrate): 42 s⁻¹

Oc1cc(Br)cc(Br)c1Oc1ccc(Br)cc1Br
aromatase reduction (H295R; concentration not given): 98.2%

CCCCC[C@H](O)/C=C/[C@H]1[C@H](O)CC(=O)[C@@H]1C/C=C\CCCC(=O)O
Hill coefficient (PTGER4 (Homo sapiens, UniProt P35408)): 0.9

C[C@]12CC[C@H]3[C@@H](CCC4=CC(=O)CC[C@@]43C)[C@@H]1CC[C@@H]2O
Km (aromatase human placental; substrate): 0.041 µM

NC(N)=NCCC[C@H](NC(=O)[C@H](Cc1ccccc1)NC(=O)[C@@H]1CCCN1C(=O)[C@H](CO)NC(=O)[C@H](Cc1ccccc1)NC(=O)CNC(=O)[C@@H]1CCCN1C(=O)[C@@H]1CCCN1C(=O)[C@@H](N)CCCN=C(N)N)C(=O)O
Hill coefficient (BDKRB2; binding): 1

CC(C)(O/N=C(\C(=O)N[C@@H]1C(=O)N2C(C(=O)[O-])=C(C[N+]3(CCNC(=O)c4ccc(O)c(O)c4Cl)CCCC3)CS[C@H]12)c1csc(N)n1)C(=O)O
Km (AmpC beta-lactamase; substrate): 533 µM

O=S1OCC2C(CO1)C1(Cl)C(Cl)=C(Cl)C2(Cl)C1(Cl)Cl (centres unmarked)
ATPase activity (P-glycoprotein MDR1, hamster; inhibitor; proteoliposomes; 50 µM, together with: tetramethylrosamine): inhibited

COC1=C(OC)C(=O)C(CC=C(C)C)=C(C)C1=O
free energy change (pufM QA site; P+HA− charge separation, delayed fluorescence): -520 meV

CCCCCOc1ccc(-c2ccc(-c3ccc(C(=O)N[C@H]4C[C@@H](O)[C@@H](O)NC(=O)[C@@H]5[C@@H](O)[C@@H](C)CN5C(=O)[C@H]([C@@H](C)O)NC(=O)[C@H]([C@H](O)[C@@H](O)c5ccc(O)cc5)NC(=O)[C@@H]5C[C@@H](O)CN5C(=O)[C@H]([C@@H](C)O)NC4=O)cc3)cc2)cc1
peripheral volume of distribution (human, general patient population; dose not given, typical value): 23.5 L

Nc1c(Br)cccc1C(=O)C[C@H](N)C(=O)O
kcat (kynureninase (Pseudomonas fluorescens); substrate): 11 s⁻¹

O=C(O)/C(=C/c1c(C(=O)O)[nH]c2cc(Cl)cc(Cl)c12)c1ccccc1
Hill coefficient (Grin1 (Rattus norvegicus, UniProt P35439)): 0.6

CC1=C(C)C(=O)C(C)=C(C)C1=O
free energy change (pufM QA site; P+HA− charge separation, delayed fluorescence): -550 meV

CC(=O)N[C@@H](CSC(Cl)=CCl)C(=O)O
kcat (N-acyl-aromatic-L-amino acid amidohydrolase (carboxylate-forming) (Acy3, Mus musculus, UniProt Q91XE4); substrate; together with: Co2+ 0.1 mM): 2.28 s⁻¹
